Measured values of several laboratories.
Lines come from different studies, so protocols differ. ± gives the spread as reported.
UniProt P41143, sequence (whole entry, unmodified, looked up): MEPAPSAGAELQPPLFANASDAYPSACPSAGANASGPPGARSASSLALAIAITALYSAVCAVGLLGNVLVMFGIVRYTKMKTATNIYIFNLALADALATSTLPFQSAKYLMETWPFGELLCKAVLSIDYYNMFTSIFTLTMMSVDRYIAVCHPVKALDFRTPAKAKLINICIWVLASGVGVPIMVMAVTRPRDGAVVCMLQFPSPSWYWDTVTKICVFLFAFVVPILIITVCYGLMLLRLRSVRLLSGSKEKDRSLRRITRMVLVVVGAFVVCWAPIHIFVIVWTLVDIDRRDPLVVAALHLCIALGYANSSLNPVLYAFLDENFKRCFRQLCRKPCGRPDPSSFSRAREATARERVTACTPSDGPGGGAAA
UniProt P16234, sequence (whole entry, looked up): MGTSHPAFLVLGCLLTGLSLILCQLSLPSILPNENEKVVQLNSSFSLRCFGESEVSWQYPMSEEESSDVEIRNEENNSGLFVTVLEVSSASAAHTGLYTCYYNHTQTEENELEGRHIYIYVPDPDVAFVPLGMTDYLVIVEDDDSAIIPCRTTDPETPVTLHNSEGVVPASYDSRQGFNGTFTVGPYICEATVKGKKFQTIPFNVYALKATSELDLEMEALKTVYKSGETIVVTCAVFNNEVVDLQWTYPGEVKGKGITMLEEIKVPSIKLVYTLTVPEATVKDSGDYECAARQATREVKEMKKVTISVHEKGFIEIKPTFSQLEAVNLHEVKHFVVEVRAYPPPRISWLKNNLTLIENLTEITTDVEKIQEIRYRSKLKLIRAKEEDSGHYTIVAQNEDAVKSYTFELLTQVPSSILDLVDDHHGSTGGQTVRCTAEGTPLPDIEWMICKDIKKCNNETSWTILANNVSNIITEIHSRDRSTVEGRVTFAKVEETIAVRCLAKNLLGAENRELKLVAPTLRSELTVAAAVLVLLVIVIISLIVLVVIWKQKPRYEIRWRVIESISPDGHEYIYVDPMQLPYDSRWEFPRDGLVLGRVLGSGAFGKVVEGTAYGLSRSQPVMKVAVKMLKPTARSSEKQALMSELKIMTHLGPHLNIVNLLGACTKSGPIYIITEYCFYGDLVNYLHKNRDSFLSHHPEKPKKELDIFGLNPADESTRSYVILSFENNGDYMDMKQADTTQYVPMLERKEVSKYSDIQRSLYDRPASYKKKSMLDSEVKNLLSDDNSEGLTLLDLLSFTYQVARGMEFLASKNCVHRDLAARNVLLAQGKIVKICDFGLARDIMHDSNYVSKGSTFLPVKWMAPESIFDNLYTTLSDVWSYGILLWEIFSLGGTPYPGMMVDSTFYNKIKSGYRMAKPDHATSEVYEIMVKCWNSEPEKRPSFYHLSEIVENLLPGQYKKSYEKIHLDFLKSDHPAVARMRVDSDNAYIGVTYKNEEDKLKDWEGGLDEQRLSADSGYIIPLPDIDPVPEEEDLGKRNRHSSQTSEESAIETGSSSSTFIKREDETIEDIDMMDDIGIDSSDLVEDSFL
UniProt P41586, sequence (whole entry, looked up): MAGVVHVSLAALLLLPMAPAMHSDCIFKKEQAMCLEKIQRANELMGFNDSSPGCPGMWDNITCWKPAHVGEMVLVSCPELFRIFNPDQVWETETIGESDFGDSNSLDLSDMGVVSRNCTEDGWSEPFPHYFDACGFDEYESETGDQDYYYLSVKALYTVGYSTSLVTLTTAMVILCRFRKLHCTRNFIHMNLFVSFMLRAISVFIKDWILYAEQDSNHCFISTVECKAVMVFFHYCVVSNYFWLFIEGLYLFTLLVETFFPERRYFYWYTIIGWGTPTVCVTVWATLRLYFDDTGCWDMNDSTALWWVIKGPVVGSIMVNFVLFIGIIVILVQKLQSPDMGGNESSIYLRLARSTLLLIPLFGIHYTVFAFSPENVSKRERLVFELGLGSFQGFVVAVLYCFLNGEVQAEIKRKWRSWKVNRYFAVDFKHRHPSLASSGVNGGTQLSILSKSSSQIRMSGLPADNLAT

With CC(C)(C)C(=O)OCOP(=O)(OCOC(=O)C(C)(C)C)C1CCCN(O)C1=O (stereo not shown) the CC50 was over 100000 nM (HL-60(TB)).
For O=C1NC2(CC2)COc2ncc(F)cc2[C@H]2COCCN2c2ccn3ncc1c3n2, “creatine kinase activity” read 573 ± 217 U/L (Sprague-Dawley rat, male, serum; oral, 10 mg/kg/day, 4 weeks daily, end of treatment).
For CCN(CC)C(=O)c1ccc(C(c2cccc(O)c2)N2CC(C)N(Cc3ccccc3)CC2C)cc1 (stereo not shown), the Ki was 0.2 ± 0.04 nM (Delta-type opioid receptor (OPRD1, Homo sapiens, UniProt P41143, G268V)).
The remaining binding of Nc1ccc(/C=C/C(=O)N2CCc3c(oc4c(-c5ccc(F)cc5)cc(-c5ccc(C(=O)N6CCC(F)(F)CC6)cn5)cc34)C2)cn1 is reported as 87% (Platelet-derived growth factor receptor alpha (PDGFRA, Homo sapiens, UniProt P16234); binding, competition with immobilised ligand; 1 µM).
With O=C(O)C(Cl)Cl.OCCN(CCO)CCO the herbicidal inhibition was 0% (Eclipta prostrata; 15 mg/mL, 21 days, pre-emergence, greenhouse).
CSCC[C@H](NC(=O)[C@H](CCC(N)=O)NC(=O)[C@H](CCCCN)NC(=O)[C@H](CCCNC(=N)N)NC(=O)[C@H](Cc1ccc(O)cc1)NC(=O)[C@H](CCCNC(=N)N)NC(=O)[C@H](CO)NC(=O)[C@H](Cc1ccc(O)cc1)NC(=O)[C@H](CO)NC(=O)[C@H](CC(=O)O)NC(=O)[C@@H](NC(=O)[C@@H](N)Cc1ccccc1)[C@@H](C)O)C(=O)N[C@@H](C)C(=O)N[C@H](C(=O)N[C@@H](CCCCN)C(=O)N[C@@H](CCCCN)C(=O)N[C@@H](Cc1ccc(O)cc1)C(=O)N[C@@H](CC(C)C)C(=O)N[C@@H](C)C(=O)N[C@@H](C)C(=O)N[C@H](C(=O)N[C@@H](CC(C)C)C(=O)NCC(=O)N[C@@H](CCCCN)C(=O)N[C@@H](CCCNC(=N)N)C(=O)N[C@@H](Cc1ccc(O)cc1)C(=O)N[C@@H](CCCCN)C(=O)N[C@@H](CCC(N)=O)C(=O)N[C@@H](CCCCn1cc(C[C@H](NC(=O)CNC(=O)[C@H](CO)NC(=O)[C@H](CCCNC(=N)N)NC(=O)[C@H](CO)NC(=O)[C@H](CC(C)C)NC(=O)[C@H](CC(C)C)NC(=O)CNC(=O)[C@H](C)NC(=O)[C@H](CC(C)C)NC(=O)[C@H](CCCNC(=N)N)NC(=O)[C@H](Cc2c[nH]cn2)NC(=O)[C@@H](NC(=O)[C@@H](N)C(C)C)[C@@H](C)O)C(=O)N[C@H](C(=O)N[C@H](C(=O)N[C@@H](CCCCN)C(=O)N[C@@H](CC(N)=O)C(=O)N[C@@H](CC(N)=O)C(=O)N[C@@H](Cc2ccccc2)C(=O)N[C@H](C(=O)N2CCC[C@H]2C(=O)N[C@H](C(=O)N[C@@H](CC(N)=O)C(=O)N[C@H](C(=O)NCC(=O)N[C@@H](CO)C(=O)N[C@@H](CCCCN)C(=O)N[C@@H](C)C(=O)N[C@@H](Cc2ccccc2)C(N)=O)C(C)C)[C@@H](C)O)C(C)C)C(C)C)C(C)C)nn1)C(=O)N[C@H](C(=O)N[C@@H](CCCCN)C(=O)N[C@@H](CC(N)=O)C(=O)N[C@@H](CCCCN)C(N)=O)C(C)C)C(C)C)C(C)C gave a Kb of 28.8 nM (Pituitary adenylate cyclase-activating polypeptide type I receptor (ADCYAP1R1, Homo sapiens, UniProt P41586); cAMP accumulation, antagonist; together with: VIP).
With COc1ccc(NC(=O)N2CCCCN3[C@H](CN(C)C)[C@H](c4ccc(C#Cc5ccccc5)cc4)[C@@H]3C2)cc1 the EC50 was 48 nM (Toxoplasma gondii; tachyzoite growth, luciferase; ME49-Fluc).
